Measurements collected from several papers.
Each line is one published result; not all experiments were run side by side. Numbers after ± are the reported error.
Organism: Klebsiella pneumoniae

CCCCCCCCCCCCCC(=O)N[C@H](CCN)C(=O)N[C@@H]1C(=O)N[C@@H](CCN)C(=O)N[C@@H](CC(C)C)C(=O)N[C@@H](CCN)C(=O)N[C@H](Cc2ccccc2)C(=O)N[C@@H](CC(C)C)C(=O)N[C@@H](CCN)C(=O)N[C@H](Cc2ccc(O)cc2)C(=O)N[C@@H](C(C)C)C(=O)N[C@@H](CC(=O)O)C(=O)O[C@@H]1C
MIC (broth microdilution; BNCC 186113): 4 µg/mL

CC(C)C[C@H](NC(=O)[C@H](Cc1ccc(O)cc1)NC(=O)[C@@H]1CCCN1C(=O)[C@H](CCCNC(=N)N)NC(=O)[C@@H]1CCCN1C(=O)[C@H](CCCCN)NC(=O)[C@H](CC(=O)O)NC(=O)[C@@H]1CCCN1C(=O)[C@H](CCCNC(=N)N)NC(=O)C1(N)CCCCC1)C(=O)N1CCC[C@H]1C(=O)N[C@@H](CCCNC(=N)N)C(=O)N1CCC[C@H]1C(=O)N[C@@H](CCCNC(=N)N)C(=O)N1CCC[C@H]1C(=O)N1CCC[C@H]1C(=O)N[C@@H](CCCNC(=N)N)C(=O)N1CCC[C@H]1C(=O)N[C@H](C(=O)N[C@@H](CCCNC(=N)N)C(=O)N[C@@H](CSCc1ccccc1CSC[C@H](NC(=O)[C@H](CCCNC(=N)N)NC(=O)[C@@H](NC(=O)[C@@H]1CCCN1C(=O)[C@H](CCCNC(=N)N)NC(=O)[C@@H]1CCCN1C(=O)[C@@H]1CCCN1C(=O)[C@H](CCCNC(=N)N)NC(=O)[C@@H]1CCCN1C(=O)[C@H](CCCNC(=N)N)NC(=O)[C@@H]1CCCN1C(=O)[C@H](CC(C)C)NC(=O)[C@H](Cc1ccc(O)cc1)NC(=O)[C@@H]1CCCN1C(=O)[C@H](CCCNC(=N)N)NC(=O)[C@@H]1CCCN1C(=O)[C@H](CCCCN)NC(=O)[C@H](CC(=O)O)NC(=O)[C@@H]1CCCN1C(=O)[C@H](CCCNC(=N)N)NC(=O)C1(N)CCCCC1)C(C)C)C(=O)NN)C(=O)NN)C(C)C
MIC (bacterial growth; ATCC 13883, 100% Mueller-Hinton broth; 90 min, 37 °C, strain ATCC 13883): 3.7 ± 0.6 µg/mL

CC[C@H](C)CCCCC(=O)N[C@@H](CCN)C(=O)N[C@H](C(=O)N[C@H](CO)C(=O)N[C@H]1CCNC(=O)[C@H](CC(C)C)NC(=O)[C@H](CCN)NC(=O)[C@H](CCN)NC(=O)[C@H]([C@@H](C)CC)NC(=O)[C@@H](CC(C)C)NC(=O)[C@H](CCN)NC1=O)[C@@H](C)O
MIC (0497, mcr-1): 2 µg/mL

COc1ccc2c(c1)C=[N+]1C3CCCCC3[N+]3=Cc4c(ccc5ccc(OC)cc45)[O][Au-]13[O]2.F[P-](F)(F)(F)(F)F (centres unmarked)
MIC (bacterial growth, broth microdilution; carbapenem-resistant clinical isolate; 24 h): > 20 µM

CC[C@H](C)[C@H](NC(=O)[C@@H](CCCNC(=N)N)NC(=O)[C@H](CCCNC(=N)N)NC(=O)[C@H](CCCN)NC(=O)[C@H](Cc1c[nH]c2ccccc12)NC(=O)[C@H](CCCNC(=N)N)NC(=O)[C@@H]1CCCN1C(=O)[C@H](CCCNC(=N)N)NC(=O)[C@@H]1CCCN1C(=O)[C@H](CC(C)C)NC(=O)[C@H](Cc1ccc(O)cc1)NC(=O)[C@@H]1CCCN1C(=O)[C@@H]1CCCN1C(=O)[C@H](CCCCN)NC(=O)[C@H](CC(=O)O)NC(=O)[C@@H](N)C(C)C)C(=O)N[C@@H](Cc1ccc(O)cc1)C(=O)N[C@@H](CC(N)=O)C(=O)N[C@H](CCCNC(=N)N)C(N)=O
MIC (broth microdilution; DSM 681; 18 h): 4 µg/mL

COc1ccc2ccc3c(c2c1)C=[N+]1C2CCCCC2[N+]2=Cc4ccc(OCCN5CCCCC5)cc4[O][Au-]21[O]3.F[P-](F)(F)(F)(F)F (centres unmarked)
MIC (bacterial growth, broth microdilution; carbapenem-resistant; 24 h): 10 µM

CC(C)[C@@H]1NC(=O)[C@@H]2CCCN2C(=O)[C@@H](C)NC(=O)[C@H](CO)NC(=O)[C@H](C)NC(=O)[C@H](C(C)(C)C)NC(=O)[C@H](CCO)NC(=O)[C@H](Cc2c[nH]c3ccccc23)NC(=O)[C@H](CCO)NC(=O)[C@@H](CCN)NC(=O)[C@H](CCC(N)=O)NC(=O)[C@H](CCN)NC(=O)[C@H](Cc2ccc(O)cc2)NC(=O)[C@H]([C@@H](C)O)NC1=O
MIC (broth microdilution; NDM-1, CAMHB with polysorbate-80; 16 h): > 64 µg/mL

CN[C@H](CC(C)C)C(=O)N[C@H]1C(=O)N[C@@H](CC(N)=O)C(=O)N[C@H]2C(=O)N[C@H]3C(=O)N[C@H](C(=O)N[C@H](C(=O)O)c4cc(O)cc(O)c4-c4cc3ccc4O)[C@H](O)c3ccc(c(Cl)c3)Oc3cc2cc(c3O[C@@H]2O[C@H](CO)[C@@H](O)[C@H](O)[C@H]2O[C@H]2C[C@](C)(NCc3ccc(C(=O)OCCCCCCN(Cc4ccccn4)Cc4ccccn4)cc3)[C@H](O)[C@H](C)O2)Oc2ccc(cc2Cl)[C@H]1O
MIC (BAA-2146 NDM-1; compound alone): > 50 µM

CC[C@@H](C)[C@@H](NC(=O)[C@@H](C)NC(=O)[C@H](NC(=O)[C@@H](CC(=O)O)NC(=O)[C@@H](CCCCN)NC(=O)[C@@H](CO)NC(=O)[C@H](NC(=O)[C@@H](CC(N)=O)NC(=O)[C@@H](C)NC(=O)[C@H](NC(=O)[C@@H](CCC(=O)O)NC(=O)[C@@H](CCCCN)NC(=O)[C@H](NC(=O)[C@H](NC(=O)[C@@H](Cc1c[nH]cn1)NC(=O)[C@@H](CCCCN)NC(=O)[C@H](NC(=O)[C@@H](CCCCN)NC(=O)[C@@H](CCCCN)NC(=O)[C@H](NC(=O)[C@@H](CC(C)C)NC(=O)[C@@H](CCCCN)NC(=O)[C@@H](CC(N)=O)NC(=O)[C@@H](Cc1ccccc1)NC(=O)[C@@H](CCCNC(=N)N)NC(=O)[C@@H](CCCCN)NC(=O)[C@@H](CCCNC(=N)N)NC(=O)[C@@H](Cc1ccccc1)NC(=O)CN)C(C)C)C(C)C)[C@H](C)O)[C@H](C)CC)[C@H](C)O)C(C)C)C(C)C)C(=O)N[C@@H](C(=O)N[C@H](C)C(=O)NCC(=O)N[C@H](CO)C(=O)NCC(=O)N[C@@H](C(=O)N[C@H](C)C(=O)N[C@@H](C(=O)NCC(=O)N[C@H](C)C(=O)N[C@H](C)C(=O)N[C@H](CCSC)C(N)=O)C(C)C)C(C)C)C(C)C
MIC (isolate RKI 19/16, CAMHB): 32 µg/mL

CC(C)[C@H](NC(=O)[C@H](CCCCN)NC(=O)[C@H](CCCNC(=N)N)NC(=O)CNC(=O)[C@H](C)NC(=O)[C@H](CC(N)=O)NC(=O)[C@H](CCCNC(=N)N)NC(=O)[C@@H](NC(=O)[C@H](CCCCN)NC(=O)[C@H](CC(=O)O)NC(=O)[C@@H](NC(=O)[C@@H](NC(=O)[C@H](CCCNC(=N)N)NC(=O)[C@H](CCCNC(=N)N)NC(=O)[C@H](Cc1c[nH]c2ccccc12)NC(=O)[C@H](Cc1c[nH]c2ccccc12)NC(=O)CN)[C@@H](C)O)C(C)C)C(C)C)C(=O)O
MIC (clinical strain; 18 h, 37 °C): > 256 µg/mL

COc1ccc2ccc3c(c2c1)C=[N+]1C2CCCCC2[N+]2=Cc4ccccc4[O][Au-]21[O]3.F[P-](F)(F)(F)(F)F (centres unmarked)
MIC (bacterial growth, broth microdilution; carbapenem-resistant clinical isolate; 24 h): > 20 µM

NCCCC[C@@H]1NC(=O)[C@@H](CCCCN)NC(=O)[C@H](CCCCN)NC(=O)[C@@H](CCCCN)NC(=O)[C@H](Cc2c[nH]c3ccccc23)NC(=O)[C@@H](Cc2c[nH]c3ccccc23)NC(=O)[C@@H](N)CSCc2ccc(cc2)CSC[C@@H](C(N)=O)NC(=O)[C@@H](Cc2c[nH]c3ccccc23)NC(=O)[C@H](Cc2c[nH]c3ccccc23)NC(=O)[C@@H](CCCCN)NC1=O
MIC: > 64 µg/mL

COc1ccc2ccc3c(c2c1)C=[N+]1C2CCCCC2[N+]2=Cc4c(C)cccc4[O][Au-]21[O]3.F[P-](F)(F)(F)(F)F (centres unmarked)
MIC (bacterial growth, broth microdilution; carbapenem-resistant clinical isolate; 24 h): 10 µM

CC(C)C[C@H](NC(=O)[C@H](Cc1ccc(O)cc1)NC(=O)[C@@H]1CCCN1C(=O)[C@H](CCCNC(=N)N)NC(=O)[C@@H]1CCCN1C(=O)[C@H](CCCCN)NC(=O)[C@H](CC(=O)O)NC(=O)[C@@H]1CCCN1C(=O)[C@H](CCCNC(=N)N)NC(=O)C1(N)CCCCC1)C(=O)N1CCC[C@H]1C(=O)N[C@@H](CCCNC(=N)N)C(=O)N1CCC[C@H]1C(=O)N[C@@H](CCCNC(=N)N)C(=O)N1CCC[C@H]1C(=O)N1CCC[C@H]1C(=O)N[C@@H](CCCNC(=N)N)C(=O)N1CCC[C@H]1C(=O)N[C@H](C(=O)N[C@@H](CCCNC(=N)N)C(=O)N[C@@H](CSCC(N)=O)C(=O)NN)C(C)C
MIC (bacterial growth; ATCC 13883, 100% Mueller-Hinton broth; 90 min, 37 °C, strain ATCC 13883): 3.2 ± 0.1 µg/mL

Repeated from above:
CC(C)[C@@H]1NC(=O)[C@@H]2CCCN2C(=O)[C@@H](C)NC(=O)[C@H](CO)NC(=O)[C@H](C)NC(=O)[C@H](C(C)(C)C)NC(=O)[C@H](CCO)NC(=O)[C@H](Cc2c[nH]c3ccccc23)NC(=O)[C@H](CCO)NC(=O)[C@@H](CCN)NC(=O)[C@H](CCC(N)=O)NC(=O)[C@H](CCN)NC(=O)[C@H](Cc2ccc(O)cc2)NC(=O)[C@H]([C@@H](C)O)NC1=O
MIC (broth microdilution; NDM-1, CAMHB with polysorbate-80; 16 h): > 64 µg/mL
